Published values pooled from the literature.
A part holds a random share of what one study measured.

Study 1
Target: RNA binding protein fox-1 homolog 2, RRM domain, GST-SBP tag (RBFOX2, Homo sapiens, UniProt O43251-10, residues 100-194)
Method: RNA Bind-n-Seq
Form: RNA
Sample: in vitro
Concentration: 365 nM
Setting: natural RNA segment, single round, ends assumed
Baseline: no-protein control
Direction: higher = stronger binding
Measurement: RBNS enrichment (R)
All sequences stand within: GGGAGUUCUACAGUCCGACGAUC … UGGAAUUCUCGGGUGCCAA
Target sequence (chain): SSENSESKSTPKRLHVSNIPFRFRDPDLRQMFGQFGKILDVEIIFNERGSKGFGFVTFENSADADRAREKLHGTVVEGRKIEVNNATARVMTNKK
Oligonucleotide = CUCCACCAACCCAUCAGAAGGAGAAGGAAGGAGACUCACCUCUGCCUCAAUGUGAAUCAGACCCUACCCCACCACGAUGUGGCCCUGGCCUGCUGGGCUCUCCACCUCAG; result = 0.32
Oligonucleotide = AGAUCUACAUACAUGAAGAGCUGAAGAGGUCCCUUCGGUCUCCGCCAGGGAACCUGGUGGGAGGGAGAAAGAUGAGGGGAGGGAGUUUACCUUUUGAUUAGCUGUUGAGG; result = 0.732
Oligonucleotide = CUACUUUGAGAGAAUUUCAAUAUUCUCUUAAUGUUGUGUAAUUGAUUAGGUAACUAAAAAGCGCAAAUUGUUGGCAGGUUUUGCUGCACAUUGUUCUAUGUCUUUGUUGG; result = 0.351
Oligonucleotide = AAUGGUACAGCCACUAAGUAUCACCAGAAAACCAGAAGCCCAGGAUCUUCUGCCUCCGCCAGCCUGUGAGCUGUUUCCAUGUUUUCAAAGCACAGCAGCAGUCGCUUCUG; result = 0.471
Oligonucleotide = CAACAGAAGCUGUGCAGCCAGGGCAGGCCCAGGCCAGCCAGUACCUGAGAGUAGGAAGGCCAGGCCCUUGAGGUCCUGUCCCAUGGGACAGCACACACACUACCUGCAAU; result = 0.369
Oligonucleotide = ACGUGCUGCCUGUACAGGAGUCUCAAGCUGGAGCACUACUGCCCUGCCUUGGGCCUUGCUGCUGCUGCACCCAACUACUGAGCUGAGACCACUGAGUACCAGGGGCUGGG; result = 0.447
Oligonucleotide = AUAAGUUCAAGGUCAUUCUUAUCUAUAUAAUGAGUUUAAGGCAGUCUAAGCUACAUGAGACCCUGUUGAGAGAAAGAGACAGAAAGGCAUGCACGUGCGCGUGUGUGCAC; result = 0.219
Oligonucleotide = AUAGCAGCUGAAUGCAUGCAUGACUUUGAGGGAAGUUAAGACUGGUUUUCUUUUCCCAUCUCUGCACAUUGAAAAACCAAGCCAAGUCUAUUUGCCAAUGAUAGAUCACU; result = 3.89
Oligonucleotide = GCGUGUCGGGCGUCUGCUGGCCCUGAGACAUCCAGUCUUCCACACUCAACUGUGGGAUGGGAGGGUGGCGUGGCCUUACCCCAUGAGGCUGUCCAGGCUCUGGCACACAG; result = 0.425
Oligonucleotide = UGAAUUUGAGCACAGUCCAGAAAUGGAGACAUCCCACCCCCAGUUGAAUAAUGGCCCAUUCAUGCCAACCUUGCCAACACGGAGAGGGCAGAGAUGCACUAGAAGACCUU; result = 0.366
Oligonucleotide = UUUGUUUUUUGUUUUUGUUUUUAACCUAGAAGAACCAAAUCUGGACGCCAAAACGUAGGCUUAGUUUGUGUGUUGUCUCUGAGUUUGUCGCUCAUGCGUACAACAGGGUA; result = 0.511
Oligonucleotide = GCUGAAACCAAGAGCACAAUUCCCAUUAAGAGAAGGAUCUCUGUGCUGUAAACUAAACAAAUUGUGCAUUUUUUCUGGGGCCAUUGUUUUUGGUUUAUUUUGUUAUUUUG; result = 0.856

Study 2
Target: Histone acetyltransferase KAT6A, winged helix 2, GST fusion (KAT6A, Homo sapiens, UniProt Q92794, residues 85-181)
Method: protein binding microarray
Form: double-stranded DNA, one strand shown
Sample: in vitro
Concentration: not given
Setting: 8-mer, flanks averaged, mean of 2 arrays, mostly near background
Baseline: not given
Direction: higher = stronger binding
Measurement: E-score
Residues (chain): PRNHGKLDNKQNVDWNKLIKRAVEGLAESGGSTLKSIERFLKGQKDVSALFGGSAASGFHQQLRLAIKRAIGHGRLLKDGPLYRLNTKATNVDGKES
Oligonucleotide = CTGATATC; result = 0.0846
Oligonucleotide = GTGGGAAC; result = 0.0178
Oligonucleotide = CATCCACG; result = 0.0782
Oligonucleotide = GCTAGGCA; result = -0.0546
Oligonucleotide = TATAGGAA; result = -0.0607
Oligonucleotide = CTATTATC; result = -0.0679
Oligonucleotide = CACTGGGA; result = 0.0249
Oligonucleotide = GTTCCTAA; result = -0.018
Oligonucleotide = AAGGCCCG; result = 0.0731
Oligonucleotide = GATCCCTA; result = -0.127
Oligonucleotide = CGGTCGTA; result = -0.0746
Oligonucleotide = CTCTTTGA; result = -0.0497
Oligonucleotide = ACTAATGC; result = 0.111
Oligonucleotide = AGAAGCAA; result = -0.02
Oligonucleotide = CGGTGCTA; result = 0.0495
Oligonucleotide = GGAGACGA; result = 0.146
Oligonucleotide = CTCCATGA; result = 0.00563
Oligonucleotide = AACCGGCG; result = 0.144

Study 3
Target: RING finger protein unkempt homolog, zinc fingers 1-6, GST-SBP tag (UNK, Homo sapiens, UniProt Q9C0B0, residues 30-357)
Sequence of UniProt Q9C0B0 (30-357, looked up): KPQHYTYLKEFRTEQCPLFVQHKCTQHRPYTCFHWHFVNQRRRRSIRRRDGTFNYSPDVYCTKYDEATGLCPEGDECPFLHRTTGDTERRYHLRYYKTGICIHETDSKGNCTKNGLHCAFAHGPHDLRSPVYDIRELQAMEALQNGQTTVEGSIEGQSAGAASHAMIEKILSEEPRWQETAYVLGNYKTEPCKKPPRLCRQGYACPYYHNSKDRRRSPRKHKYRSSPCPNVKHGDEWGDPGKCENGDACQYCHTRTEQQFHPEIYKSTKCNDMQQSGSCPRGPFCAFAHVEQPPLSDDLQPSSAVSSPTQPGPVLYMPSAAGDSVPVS
Method: RNA Bind-n-Seq
Form: RNA
Sample: in vitro
Concentration: not given
Setting: RNA with constant flanks, ends assumed
Baseline: input RNA pool
Direction: higher = stronger binding
Measurement: bound/input enrichment
All sequences stand within: GGGAGUUCUACAGUCCGACGAUC … CAACAGAGGAUUGAGCAUCA
Oligonucleotide = AGCCUUCGAGGAAGAGGCCCUCCUCCUUCUUGGGCUUCUGAACCUGAACGCCCAUCCAUCCUCCGUGCAUCCGAACUGAAGGAGCUCGAUAAAUUUGAUAACCUAGAUGCUGAAGCAGAU; result = 0.201 ratio
Oligonucleotide = GAGAAUGGCUCUCUUCAACUUGGCGCUGAAGCUGUGGAAGGUGGUAGACAUCAGAAGGGGUCCGGCCGUGCAGUCUUUGAGCUGGAAAAUGGAGAGGCAGAGAUCUACGCUGACCUGUCA; result = 0.113 ratio
Oligonucleotide = CAAGCCAGUCCUGUUGUGAUUUGUCCAUCGAGUGUGUGUGUGUGUGUGUGUGACCAUCAGUUCCGCCCAGAGUGGACAGGGUCCAGGCAUACCCACCCUGGCCCAUGCUCCUCUAGGACA; result = 0.14 ratio
Oligonucleotide = GAUGUAAAAAAAAAAAAAAAAAAAAAAAAAAAAACACACACACAGAGGAAAGACGCUCUUCCGGUUUUGUUUUGUUUUUUUUUUUUGGUUUUGUUUUUUGUUUUUUUUACUCUAGGGAAA; result = 1.32 ratio
Oligonucleotide = AAACUUCACUCAUCAUUUGAAUACAGUAUUUACAGAGGAUGUUUGAGUUGAGAGCUUUUUCCGGUUUGAGGGGCUUGAUUUUUUUGUAAAUAAAAUUAUGCUUUGUGGCUAUCCAUCAAC; result = 0.134 ratio
Oligonucleotide = CUUUAAGUCUUUGAGAGGGGCCUGAAGAGCCUCCGGGCUCCUGGGACAUUGAUGUAGAGUUUUCCGUGAAGUGGGCACCUUUCUAGUCCACGGCAUUUGAAGAGAGCGAGGAGAACCAUU; result = 0.268 ratio
Oligonucleotide = AUGAUGAAGCUCUCAGAAGAAAACCGACACCUGAGAGAUGAAGGCCUAAGGCUCAGAAAGGCCGCACAUUCGGAUAAACCUGGAUCCACCUCAGCCGUGUCCUUCAGAGAUAAUGUCACC; result = 0.148 ratio
Oligonucleotide = AUGACCCUUGGACAGCAGGACGUUUCCAAAGUCCUGCUGGGACCACUCUCACCCUACACGACCGAAUUUUUGCGGCAUCUGAAGAGCUUUUUCCAGGUUAUGUUUAAAGUUGAAACCAAG; result = 0.231 ratio
Oligonucleotide = AUUAGGCCUCUCUGGAGGCAUUACUUCCAGAAUACCCAGGGUCUCAUUUUUGUGGCCGACCGCAAUGAUCGUGAAAGAAUCCAGGAAGGAGCAGCUGUGCUGCAGAAAAUGCUUCUGGAA; result = 0.202 ratio
Oligonucleotide = GACUUAGAUAAUUCUUUGGAAGUGAAAGCUAAACCUGCUUCUGGCCUAGAUGGUAAUUUCAACCGUGUCCGAAUGGAUAUGUUCAGUGUGUAGGAGUGAAGACAGGAUCCCGUGCUUAAA; result = 0.39 ratio
Oligonucleotide = CGGUUUGCAGUCCCUCCAGCACUUGGGAGUAAUUUGACCGACAAUGUCAUGAUCACAGCCGAUAUUAUUCCUUCAGGUUGGAAUUCAGCUGAUGGUAAAAGUGAUAAAACUAAAAGUGCG; result = 0.165 ratio

Study 4
Target: Prothrombin, mature alpha-thrombin (F2, Homo sapiens, UniProt P00734)
Method: aptamer microarray, sandwich
Form: DNA with 2'F-ANA
Sample: in vitro
Concentration: 200 nM
Setting: whole 15-mer aptamer, many near background
Added: Cy3 exosite-II aptamer, 400 nM
Direction: higher = stronger binding
Measurement: mean fluorescence intensity
Oligonucleotide: GGTTGGTGTGGTTGG
Modification = 2'F-ANA at 2 4 6 8 10 11 15; result = 72.8 a.u.
Modification = 2'F-ANA at 2 3 4 5 6 8 9 11 12; result = 171 a.u.
Modification = 2'F-ANA at 1 2 3 6 7 9 13 14; result = 87.2 a.u.
Modification = 2'F-ANA at 2 3 5 6 7 8 10 13 14; result = 49.7 a.u.
Modification = 2'F-ANA at 1 2 4 7 10 11 12 13; result = 58.3 a.u.
Modification = 2'F-ANA at 2 6 7 9 10 11 14; result = 85.3 a.u.
Modification = 2'F-ANA at 3 4 7 8 9 10 15; result = 361 a.u.
Modification = 2'F-ANA at 1 4 6 7 11 12 15; result = 171 a.u.
Modification = 2'F-ANA at 1 4 8 11 12 13 14 15; result = 61.8 a.u.
Modification = 2'F-ANA at 1 3 7 11 13 14; result = 91.8 a.u.
Modification = 2'F-ANA at 3 4 5 6 7 8 10 11 12 13 14; result = 44.7 a.u.
Modification = 2'F-ANA at 1 2 6 7 10 14; result = 45.8 a.u.
Modification = 2'F-ANA at 4 5 7 9 10 13; result = 48.8 a.u.
Modification = 2'F-ANA at 1 4 6 8 9 12 15; result = 259 a.u.
Modification = 2'F-ANA at 1 3 7 8 10 11 12 13; result = 112 a.u.
Modification = 2'F-ANA at 1 2 4 5 7 9 12 15; result = 94.7 a.u.
Modification = 2'F-ANA at 1 3 5 6 9 10 11 12 15; result = 58.3 a.u.
Modification = 2'F-ANA at 1 5 6 8 9 12 13; result = 79.2 a.u.
Modification = 2'F-ANA at 1 3 5 7 8 9 11 12 14 15; result = 58.9 a.u.
Modification = 2'F-ANA at 2 5 6 8 14; result = 58.3 a.u.
Modification = 2'F-ANA at 1 2 3 4 5 6 11; result = 75.6 a.u.

Study 5
Target: Sal-like protein 4, full length isoform B (SALL4, Homo sapiens, UniProt Q9UJQ4-2, residues 1-616)
Method: universal PBM
Form: double-stranded DNA, one strand shown
Sample: in vitro
Concentration: not given
Setting: 8-mer, flanks averaged, mean of replicates
Direction: higher = stronger binding
Measurement: E-score
Oligonucleotide = CAAAACGA; result = 0.132
Oligonucleotide = CGTAGTTA; result = 0.273
Oligonucleotide = GGAATCAC; result = 0.036
Oligonucleotide = AGGAGAAT; result = 0.0466
Oligonucleotide = GCGTGGGA; result = -0.146
Oligonucleotide = AGGGCAGA; result = -0.0704
Oligonucleotide = CAACTGCG; result = -0.237
Oligonucleotide = CCTATAGA; result = 0.0867
Oligonucleotide = GGGCAGAC; result = -0.241
Oligonucleotide = ACACTCGC; result = -0.159
Oligonucleotide = ACTTTCAC; result = 0.127
Oligonucleotide = CCCCTCAC; result = -0.268
Oligonucleotide = GGTAGAAA; result = -0.0243
Oligonucleotide = CAACCCGC; result = -0.223
Oligonucleotide = AAGGTAAT; result = 0.212
Oligonucleotide = CTCCCTCC; result = -0.292
Oligonucleotide = TTGCTAAA; result = 0.111
Oligonucleotide = GGTCATAA; result = 0.315
Oligonucleotide = TAACCCAA; result = 0.0674
Oligonucleotide = AGTGAGGG; result = -0.107
Oligonucleotide = CGGGGCTC; result = -0.322
Oligonucleotide = ATGCTCTC; result = -0.0603
Oligonucleotide = GGGACGTA; result = -0.0927
Oligonucleotide = ACACAGCA; result = 0.162
Oligonucleotide = CGCGTACA; result = 0.0315

Repeated from above (study 4):
Modification = 2'F-ANA at 1 2 6 7 10 14; result = 45.8 a.u.
Modification = 2'F-ANA at 1 4 8 11 12 13 14 15; result = 61.8 a.u.
Modification = 2'F-ANA at 1 4 6 8 9 12 15; result = 259 a.u.
Modification = 2'F-ANA at 2 6 7 9 10 11 14; result = 85.3 a.u.
Modification = 2'F-ANA at 1 2 4 7 10 11 12 13; result = 58.3 a.u.
Modification = 2'F-ANA at 2 4 6 8 10 11 15; result = 72.8 a.u.
Modification = 2'F-ANA at 1 3 7 11 13 14; result = 91.8 a.u.
